Assay results collected from several papers.
Lines come from different studies, so protocols differ. Values joined by “and” are separate records of one study, mostly repeats; a detail may differ. ± marks the error that the study gave.
Cell line: A549

Under “reduction of wound healing rate”, `Cc1nc(N(Cc2ccccc2)c2ccc3c(c2)/C(=C/c2ccccc2)C(=O)N3Cc2ccccc2)c2ccccc2n1` (mixture of isomers) is recorded as 48.7% (1.0 µM, 24 h; relative to: untreated).
The growth percent of `CCCCN1CCN(c2ccc3[nH]c(-c4ccc5[nH]c(-c6cc(OC)c(OC)c(OC)c6)nc5c4)nc3c2)CC1` is reported as 105% (SRB; 10 µM, 48 h).
With `COC(=O)C1CCN(C(=O)c2ccc(N(CCO)Cc3cnc4nc(N)nc(N)c4n3)cc2)CC1` the cell growth was 142 ± 14.5% (CellTiter-Glo; 10 µM; 100 none, 0 cytostatic, -100 cytotoxic).
`COc1cc(C2=CCCc3c2ccc(OC)c3OCc2ccc([N+](=O)[O-])s2)cc(OC)c1OC` gave an IC50 of 0.5 ± 0.08 µM (4 h, anoxic).
With `NC(=O)C1CCN(C(=O)c2ccc(NCc3cnc4nc(N)nc(N)c4n3)cc2)CC1` the cell growth was -1.03 ± 4.03% (CellTiter-Glo; 10 µM; 100 none, 0 cytostatic, -100 cytotoxic).
With `CCCN1CCN(c2ccc3nc(-c4ccc5nc(-c6cc(OC)ccc6OC)[nH]c5c4)[nH]c3c2)CC1` the growth percent was 115% (SRB; 10 µM, 48 h).
`COc1cc2ncnc(Cc3cccc(-c4ccc(CO)cc4)c3)c2cc1OC` gave an inhibition of 30% (mitochondrial oxygen consumption, Seahorse XF96; 10 µM).
With `COc1cccc(Oc2ccccc2NC(=O)CNC(=O)c2cccc3ccccc23)c1` the GI50 was 0.316 µM (SRB; 48 h).
With `[N-]=[N+]=NCCCNC(=O)CCCC[C@@H]1SC[C@@H]2NC(=O)N[C@@H]21` the NAP-650 uptake was 57.2 and 54.8 and 52.5 (flow cytometry; 1 µM, unit not given, together with: NAP-650 400 nM; relative to: isotype control).
`COc1ccc2c(c1NC(=O)OCc1ccc([N+](=O)[O-])s1)CCC=C2c1cc(OC)c(OC)c(OC)c1` gave an IC50 of 10.1 ± 6.35 µM (cell growth, SRB; 4 h exposure then 120 h oxic, oxic exposure then drug removal).
`COc1cc(-c2cccc(Cc3ncnc4cc(OC)c(OC)cc34)c2)ccc1CO` gave an inhibition of 40% (mitochondrial oxygen consumption, Seahorse XF96; 10 µM).
`Cc1cc(=O)[nH]c(=O)n1Cc1cn(-c2cc3ccccc3oc2=O)nn1` gave a growth of 98.1% (NCI60 single dose; 10 µM).
For `CCCCCC(=O)Oc1c(C)c(O)c(C(=O)/C=C/c2ccccc2)c(OC)c1C`, the selectivity index was 0.95 (relative to: CL over A549).
With `CC(C)c1ccc(/C=C2\N=C(SCC(=O)O)N(c3ccccc3)C2=O)cc1` the selectivity index was 1.3 (MTT; relative to: BJ1 over A549).
`C=CCOc1c(C)c(O)c(C(=O)/C=C/c2ccccc2)c(OC)c1C` has a selectivity index of 0.86 (relative to: CL over A549).
`COc1cc(C2=CCCc3c2ccc(OC)c3OCc2cnc([N+](=O)[O-])n2C)cc(OC)c1OC` gave an IC50 of 0.64 ± 0.46 µM (4 h, anoxic).
With `COc1ccc(Cc2nccc3ccc(C4COC4)cc23)cc1OC` the inhibition was 3% (mitochondrial oxygen consumption, Seahorse XF96; 10 µM).
With `CCn1cc(-c2cc(Cn3ccnc3)cc3c2CCN([C@H](c2cc(OC)ccn2)C2CC2)C3=O)c(C(F)(F)F)n1` the EC50 was 13.2 µM (cell growth, inhibitor; 120 h).
With `COc1ccc2ccnc(Cc3cccc(-c4ccccc4)c3)c2c1` the inhibition was 0% (mitochondrial oxygen consumption, Seahorse XF96; 10 µM).
`COc1cccc2c1C(=O)c1c(O)c3c(c(O)c1C2=O)C[C@@](O)(C(=O)CO)C[C@@H]3O[C@H]1C[C@H](N)[C@H](O)[C@H](C)O1` gave a maximal cytotoxicity of 86.2% (WST-1; concentration not given, 72 h, highest tested concentration).
The growth percent of `CCCCN1CCN(c2ccc3[nH]c(-c4ccc5[nH]c(-c6ccc(C(F)(F)F)cc6)nc5c4)nc3c2)CC1` is reported as -71.9% (SRB; 10 µM, 48 h).
`COCCOCCOCc1n(Cc2ccc3ccccc3n2)c2ccccc2[n+]1Cc1ccc2ccccc2c1.[Br-]` gave a TGI of 10.6 µM (NCI60 five-dose).
`ClCc1ccnc(-c2cc(CCl)ccn2)c1.F[P-](F)(F)(F)(F)F.[Ir+3].[c-]1ccccc1-c1ccccn1.[c-]1ccccc1-c1ccccn1` — result for “number of regulated probe sets”: 1640 (microarray; 3 µM, 24 h, fold change above 2).
`CCCCc1n(Cc2ccc3ccccc3c2)c2ccccc2[n+]1Cc1ccc2ccccc2c1.[Br-]` gave a TGI of 2.42 µM (NCI60 five-dose).
With `COc1ccc2c(c1NC(=O)OCc1ncc([N+](=O)[O-])n1C)CCC=C2c1cc(OC)c(OC)c(OC)c1` the IC50 was over 93 µM (4 h, anoxic).
For `Cc1cc(NS(=O)(=O)c2ccc(NC(=O)/C(C#N)=C/c3ccc(N4CCCC4)cc3)cc2)no1`, the selectivity index was over 1.11 (cytotoxicity, MTT; relative to: HSF over A549 IC50).
`Nc1nc(N)c2nc(C(=O)NCc3cccc(C(F)(F)F)c3)cnc2n1` has a cell growth of 125 ± 6.54% (CellTiter-Glo; 10 µM; 100 none, 0 cytostatic, -100 cytotoxic).
The growth percent of `CCCN1CCN(c2ccc3[nH]c(-c4ccc5[nH]c(-c6cc(OC)c(OC)c(OC)c6)nc5c4)nc3c2)CC1` is reported as 106% (SRB; 10 µM, 48 h).
Under “cells in G0/G1 phase”, `COc1ccc2c(c1)NC(=O)CN2c1nc(C)nc2ccccc12` is recorded as 56.6% (flow cytometry; 0.001 µM, 24 h).
`Nc1n[n+]([O-])c2ccccc2[n+]1[O-]` has an IC50 of 6.58 µM (4 h, anoxic).
`Nc1nc(N)c2nc(CNc3ccc(C(=O)NCCc4ccccc4)cc3)cnc2n1` has a cell growth of 110 ± 18.7% (CellTiter-Glo; 10 µM; 100 none, 0 cytostatic, -100 cytotoxic).
`CCCCCCCCCCCCCCCCCCOc1ccc(CC(=O)OCC[N+]2(C)CCOCC2)cc1` has a growth inhibition of under 0% (SRB; 10 µM).
For `COc1ccc2nccc(Cc3cccc(-c4cnn(C)c4)c3)c2c1`, the inhibition was 81% (mitochondrial oxygen consumption, Seahorse XF96; 10 µM).
With `Cn1cnc2c(F)c(Nc3ccc(Br)cc3F)c(C(=O)NOCCO)cc21` the viability was 75.9% (0.625 µM, 72 h).
The inhibition of `COc1cc2ccnc(C(=O)c3cccc4ccccc34)c2cc1OC` is reported as 16% (mitochondrial oxygen consumption, Seahorse XF96; 10 µM).
`CCCC(CCC)C(=O)OCc1cn(-c2c3ccccc3nc3ccccc23)nn1` gave a growth of 99.4% (NCI60 single dose; 10 µM).
`COc1ccc(Cc2nccc3cc(OC)c(OC)cc23)cc1OC` gave an inhibition of 49% (mitochondrial oxygen consumption, Seahorse XF96; 10 µM).
The viability of `O=C(NOC[C@H](O)CO)c1ccc(F)c(F)c1Nc1ccc(I)cc1F` is reported as 32.4% (10 µM, 72 h).
`COC(=O)C1CCN(C(=O)Cc2ccc(NCc3cnc4nc(N)nc(N)c4n3)cc2)CC1` gave a cell growth of 105 ± 2.15% (CellTiter-Glo; 10 µM; 100 none, 0 cytostatic, -100 cytotoxic).
The inhibition of `COc1ccc2c(Cc3cccc(-c4ccccc4)c3)nccc2c1` is reported as 0% (mitochondrial oxygen consumption, Seahorse XF96; 10 µM).
